{"data": "Experimental data gathered from unrelated publications", "target": "Fibroblast growth factor receptor 1 (FGFR1, Homo sapiens, UniProt P11362)", "note": "Lines come from different studies, so protocols differ. Several values in a cell are separate wells, animals, samples, runs or records."}
{"SMILES": "Cc1[nH]nc2c1N=C(c1ccccc1Cl)c1cnc(N3CCOCC3)cc1N2", "assay": "enzyme activity, inhibitor", "conditions": "0.5 µM", "endpoint": "inhibition", "result": "> 99%"}
{"SMILES": "CNC1C[S+]2CC[S+]3CC[S+](C1)[Ru-4]321([N]=C=S)[n]2c3ccc(OC)cc3c3c4c(c5cc(F)c[n+]1c5c32)C(=O)NC4=O (centres unmarked)", "assay": "KinomeScan", "conditions": "0.1 µM", "scale": "baseline: untreated", "endpoint": "remaining binding", "result": "71%"}
{"SMILES": "O=C(Nc1ccc(Oc2ncnc3[nH]cc(-c4ccccc4)c23)c(F)c1)c1c2n(n(-c3cc(F)ccc3F)c1=O)CCCC2", "assay": "enzyme activity, inhibitor", "conditions": "0.5 µM", "endpoint": "inhibition", "result": "-4%"}
{"SMILES": "O=C(Cc1ccc(OCc2ccccc2)cc1)NC1(C(=O)O)CCN(C(=O)c2ccc(-c3cccc(Cl)c3)cc2)CC1", "assay": "enzyme activity, inhibitor", "conditions": "10 µM", "endpoint": "activity vs control", "result": "89%"}
{"SMILES": "C=CC(=O)Nc1cccc(-c2cnc3[nH]cc(C(=O)NC(C)(C)C)c3n2)c1", "assay": "kinase activity", "conditions": "0.1 µM", "endpoint": "inhibition", "result": "22% and 24%"}
{"SMILES": "C=CC(=O)N1CCCC(n2c(=O)c3ncccc3n(Cc3ccc(Oc4ccccc4)cc3)c2=O)C1 (centres unmarked)", "assay": "cell-free assay, competition with immobilised ligand", "conditions": "1 µM", "endpoint": "remaining binding", "result": "88%"}
{"SMILES": "Cc1ccc(C)c(-c2ccc3nc(NC(=O)C4CCCCC4)nn3c2)c1", "assay": "enzyme activity, Dundee kinase panel", "conditions": "10 µM", "endpoint": "remaining activity", "result": "96%"}
{"SMILES": "COc1cc(Nc2nc(C)cc(-c3cnn4nc(OC)ccc34)n2)cc(C(F)(F)F)c1", "assay": "inhibitor", "conditions": "1 µM", "scale": "baseline: control", "endpoint": "remaining activity", "result": "98%"}
{"SMILES": "C=CC(=O)N1Cc2nc(-c3cc(-c4cc(Cl)cnc4Cl)c(F)cc3F)n(-c3ccncn3)c2C1", "assay": "cell-free assay", "conditions": "1 µM", "endpoint": "inhibition", "result": "3.3%"}
{"SMILES": "Nc1nc(Nc2ccccc2)sc1C(=O)c1ccccc1", "assay": "enzyme activity, inhibitor", "conditions": "10 µM", "endpoint": "remaining activity", "result": "39%"}
{"SMILES": "COCC12C(=O)NC3C4(C(OC)CC1O)C1CC5(O)C(OC)C(O)C(OC(C)=O)(C1C5OC(=O)c1ccccc1)C3(O)C(OC)C24 (centres unmarked)", "assay": "kinase activity, inhibitor, ProQinase kinase profiling", "conditions": "25 µM", "scale": "baseline: control", "endpoint": "remaining activity", "result": "115% and 110%"}
{"SMILES": "Nc1ncc(-c2cc(-c3cnn(CC(F)(F)F)c3)ncc2F)nc1C(=O)NC1CNCC(F)C1 (centres unmarked)", "assay": "enzyme activity", "conditions": "1 µM", "scale": "baseline: DMSO control", "endpoint": "remaining activity", "result": "91.1%"}
{"SMILES": "NC(=O)C[C@H]1CCc2sc3ncnc(O[C@H]4CC[C@H](N5CCOCC5)CC4)c3c21", "assay": "enzyme activity, inhibitor", "conditions": "10 µM", "endpoint": "inhibition", "result": "9%"}
{"SMILES": "C=CC(=O)N1CCc2ccc(-n3c(=O)ccc4cnc5ccc(-c6cnn(C)c6)cc5c43)cc21", "assay": "KINOMEscan", "conditions": "1 µM", "scale": "baseline: DMSO control", "endpoint": "remaining binding", "result": "100%"}
{"SMILES": "COc1cc(-n2cc3cc(F)cc(C(N)=O)c3n2)cc(Cl)c1C1CC(O)(CCO)Cc2ccccc21 (centres unmarked)", "assay": "enzyme activity, inhibitor", "conditions": "10 µM", "endpoint": "inhibition", "result": "0.9%"}
{"SMILES": "CN1CCN(Cc2ccc(-c3ccc(CO[C@H]4CCC[C@@H]4NC(=O)c4cc(-c5cnn(C)c5)cnc4N)cc3)cc2)CC1", "assay": "enzyme activity, inhibitor", "conditions": "0.1 µM", "endpoint": "inhibition", "result": "2%"}
{"SMILES": "COc1ccc(NC(=O)Nc2ccc3c(c2)C(=O)N(C(C)CO)CC(C)C(CN(C)Cc2ccc4c(c2)OCO4)O3)cc1 (centres unmarked)", "assay": "kinase activity", "conditions": "0.03 µM", "scale": "baseline: control", "endpoint": "remaining activity", "result": "111%"}
{"SMILES": "Cc1cccc(-c2ccc3nc(NC(=O)C4CCCO4)nn3c2)c1 (centres unmarked)", "assay": "enzyme activity, Dundee kinase panel", "conditions": "10 µM", "endpoint": "remaining activity", "result": "124%"}
{"SMILES": "O=C=[N][Ru-4]123([n]4c5ccc(O)cc5c5c6c(c7cc(F)c[n+]1c7c54)C(=O)NC6=O)[S+]1CC[S+]2CC[S+]3CC1 (centres unmarked)", "assay": "enzyme activity", "conditions": "100 nM, human enzyme, together with: 10 µM ATP", "scale": "baseline: untreated", "endpoint": "remaining activity", "result": "132%"}
{"SMILES": "CCn1cc(C(=O)O)c(=O)c2c(N)c(F)c(NC3CCCCC3)cc21", "assay": "kinase activity", "conditions": "0.1 µM, together with: ATP at Km", "endpoint": "inhibition", "result": "-2.1%"}
{"SMILES": "CCN1CCN(Cc2ccc(NC(=O)c3ccc(C)c(NC(=O)c4cncc(-c5cccs5)c4)c3)cc2C(F)(F)F)CC1", "assay": "binding, competition with immobilised ligand", "conditions": "1 µM", "endpoint": "remaining binding", "result": "32%"}
{"SMILES": "COc1ccc(O)cc1-c1c[nH]c2ncc(-c3cncc(C(=O)N(C)C)c3)cc12", "assay": "binding, competition with immobilised ligand", "conditions": "0.2 µM", "endpoint": "inhibition", "result": "10.3%"}
{"SMILES": "Cc1cccc(O[C@H]2CCC[C@@H](C(C)CNCc3ccncc3)C2)c1 (relative stereo)", "assay": "cell-free assay", "conditions": "1 µM", "endpoint": "inhibition", "result": "7%"}
